Results from different studies.
Protocols differ between the studies behind these lines. ± marks the error that the study gave.

CCC1CC2C(C)=CC3C(=O)CCCC3C=CC(C)=CC2C(=O)O1 (stereo not shown)
plaque number reduction (thioflavin S staining, measured: amyloid-beta plaques; 5XFAD mouse (male, 8 months), cortex; oral, 30 mg/kg three times per week, one month; relative to: vehicle): 12.8%

CC[C@H]1[C@@H](O)[C@@H]2[C@H](CC[C@]3(C)[C@@H]([C@H](C)CCOS(=O)(=O)[O-])CC[C@@H]23)[C@@]2(C)CC[C@@H](O)C[C@@H]12.[Na+]
liver weight (ob/ob NASH mouse model; oral, 10 mg/kg once daily, 8 weeks): 4.1 ± 0.1 g

CSc1nn(-c2ccccc2)c(NC(=O)/C(C#N)=C(/Nc2ccc(C)cc2)Nc2c(C)n(C)n(-c3ccccc3)c2=O)c1C#N
mRNA level (real-time PCR, measured: COX-2; mouse, formalin test, paw tissue; dose not given, unit not given; relative to: control): 0.4 ± 0.04

CCc1nnc(NS(=O)(=O)c2ccc(NC(=S)NC(=O)/C=C/c3ccc(F)cc3)cc2)s1
IL-6 level (immunostaining; athymic nude mouse, BE(2)-C xenograft, tumour; ip, 20 mg/kg daily, 3 weeks): decreased

FC(F)(F)Oc1ccc(/N=c2\oc3ccccc3cc2-c2ccccc2)cc1
oedema reduction (rat, formalin paw oedema; intraperitoneal, 20 mg/kg, 1 h): 38.7 ± 3.4%

C[C@@H](O)[C@H](N)C(=O)N1CCC[C@H]1C(=O)NCC(=O)NCC(=O)O
ΔS‡ at 298.15 K (diketopiperazine formation, transition state theory; 1-propanol; 70, 80, 90 °C, 0.5% acetic acid): -74 ± 8 J/(mol·K)

CCOc1c(C(C)(C)O)sc2cnc(Nc3ccc(N4CCC(N5CC6(COC6)C5)CC4)cc3OC)nc12
post-rest contraction amplitude (human atrial trabeculae; 3 and 10 µM, rest pause 10 s): increased

Cc1nc(C)c(C=[N+]([O-])C(C)(C)C)nc1C
protein level increase (Western blot, measured: PGC-1α; mouse, MPTP model, substantia nigra nuclei; 30 mg/kg): 42.2%

COc1cc(CN2CCN(c3ccccc3Cl)CC2)c2cc3[n+](cc2c1O)CCc1cc2c(cc1-3)OCO2
FRAP absorbance (ferric reducing power, FRAP; 10 µg/mL, 30 min; higher is greater reducing power): 1.91 ± 0.57 a.u.

COc1ccc(C2CC(c3ccc(C)cc3)=Nc3ccccc3S2)cc1OC (stereo not shown)
blood glucose (rat, normal, overnight fasted; oral, 10 mg/kg, 90 min, oral glucose tolerance test, together with: glucose 3 g/kg oral): 112 ± 4.57 mg/dL

COc1ccc2c(c1OC)C(C(Cl)(Cl)Cl)N1CCc3cc4c(cc3C1=C2)OCO4 (stereo not shown)
HDL cholesterol (rat, STZ-induced diabetic, serum; oral, 12 mg/kg, day 28): 37.8 ± 1.77 mg/dL

COc1c2c(cc3oc(COC4OC(CO)C(O)C(O)C4O)cc(=O)c13)OC(C(C)(C)O)C2 (stereo not shown)
hot plate latency (analgesia; mouse; oral, 2 mg/kg, 1.5 h): 12.2 ± 2.53 s

O=C(O[C@@H]1Cc2c(O)cc(O)cc2O[C@@H]1c1cc(O)c(O)c(O)c1)c1cc(O)c(O)c(O)c1
substrate inhibition onset (sulfation, substrate; human liver cytosol): > 40 µM

CC1Cc2ccccc2N1C(=O)CN1CCN(Cc2ccccc2)CC1 (stereo not shown)
locomotor activity (open field; D4 dopamine receptor knockout mice; ip, 1 mg/kg): no effect

CCCCCCCCCCCCCCCC(=O)NCCCC[C@H](NC(=O)[C@H](CCC(=O)O)NC(=O)[C@H](Cc1ccc(O)cc1)NC(=O)[C@H](CCC(=O)O)NC(=O)COCC(=O)NCCCOCCOCCOCCCNC(=O)[C@H](Cc1ccccc1)NC(=O)[C@H](CC(N)=O)NC(=O)[C@H](Cc1c[nH]cn1)NC(=O)[C@@H](NC(=O)[C@H](CC(=O)O)NC(=O)[C@H](CCC(N)=O)NC(=O)[C@H](CC(C)C)NC(=O)[C@H](CCCCN)NC(=O)[C@H](CCCCN)NC(=O)[C@H](CCCNC(=N)N)NC(=O)[C@H](CC(C)C)NC(=O)[C@H](Cc1c[nH]c2ccccc12)NC(=O)[C@H](CCC(=O)O)NC(=O)[C@@H](NC(=O)[C@H](CCCNC(=N)N)NC(=O)[C@H](CCC(=O)O)NC(=O)[C@H](CCSC)NC(=O)[C@H](CO)NC(=O)[C@H](CC(N)=O)NC(=O)[C@H](CC(C)C)NC(=O)[C@H](Cc1c[nH]cn1)NC(=O)[C@H](CCCCN)NC(=O)CNC(=O)[C@H](CC(C)C)NC(=O)[C@H](CC(N)=O)NC(=O)[C@H](Cc1c[nH]cn1)NC(=O)[C@H](CCSC)NC(=O)[C@H](CC(C)C)NC(=O)[C@H](CCC(N)=O)NC(=O)[C@@H](NC(=O)[C@H](CCC(=O)O)NC(=O)[C@H](CO)NC(=O)[C@@H](NC(=O)[C@@H](N)CO)C(C)C)[C@@H](C)CC)C(C)C)C(C)C)C(=O)N[C@@H](CCC(=O)O)C(=O)N[C@@H](Cc1ccc(O)cc1)C(=O)N[C@@H](CCC(=O)O)C(N)=O
time to peak calcemic response (measured: Ca2+; CD-1 mice, blood; sc, 10 nmol/kg): 6 h

N[C@@H](Cc1ccccc1)C(=O)N1CCC[C@H]1C(=O)NCC(=O)NCC(=O)O
enthalpy of activation (diketopiperazine formation, transition state theory; 1-propanol; concentration not given, 70, 80, 90 °C, 0.5% acetic acid): 88 ± 8 kJ/mol

CC=CC(CC(=O)O)c1ccc(OCc2ccc(-c3cc(OC)ccc3F)cc2)cc1 (stereo not shown)
GLP-1 release (measured: total GLP-1; colonic crypt cultures, wild type, mouse, ex vivo; 1 µM, 2 h; relative to: vehicle): 1.4 ± 0.19 fold change

C=C(c1ncc(C(=O)O)cn1)c1cc2c(cc1C)C(C)(C)CCC2(C)C
log2 fold change (RNA sequencing, measured: Sycp2; rat, brain; dose not given, 24 h; relative to: vehicle): 0.048

C[C@H](N)C(=O)N1CCC[C@H]1C(=O)NCC(=O)NCC(=O)O
ΔS‡ at 298.15 K (diketopiperazine formation, transition state theory; 1-propanol; 70, 80, 90 °C, 0.5% acetic acid): -50 ± 3 J/(mol·K)

CC(=O)Nc1ccc(OC(=O)CCC(=O)[O][Pt-2]23([O]C(=O)CCC(=O)Oc4ccc(NC(C)=O)cc4)([NH2+][C@@H]4CCCC[C@H]4[NH2+]2)[O]C(=O)C(=O)[O]3)cc1
IL-12 level (BALB/c mouse, 4T1 tumour, tumour tissue; dose not given; relative to: PBS): 2.5 fold

CC(=O)[O-].O.[Cu+2].[O-]c1ccc(Br)cc1C=NCCN1CCOCC1
inhibition (DPPH radical scavenging; 240 µM): 74.9%

C[C@H](NC(=O)COC(=O)[C@H](C)NC(=O)CO)C(=O)O
depolymerization rate constant (water; pH 3, 65 °C): 0.025 h⁻¹

N=C(N)NCCC[C@H](N)C(=O)N1CCC[C@H]1C(=O)NCC(=O)NCC(=O)O
ΔS‡ at 298.15 K (diketopiperazine formation, transition state theory; 1-propanol; 70, 80, 90 °C, 0.5% acetic acid): 0 ± 1 J/(mol·K)

CCOC(=O)Cc1csc(NC(=O)CN2CCN(C)CC2)n1
inhibition in vivo (paw oedema; mouse; intraperitoneal, 200 µmol/kg): 47.9%

C=CC(=O)Nc1cccc(-c2cnc3[nH]cc(C(=O)NC(C)(C)C)c3n2)c1
onset of phospho-STAT5 suppression (mouse, NK-S1 xenograft, tumour; ip, 50 mg/kg): ≤ 2 h

CC(=O)N[C@H](CSSC[C@H](N)C(=O)O)C(=O)N[C@H](C)C(=O)N[C@H](CCCNC(=N)N)C(=O)N[C@H](CCCNC(=N)N)C(=O)N[C@H](CCCNC(=N)N)C(=O)N[C@H](C)C(=O)N[C@H](CCCNC(=N)N)C(N)=O
plasma ionized calcium change (healthy male human; intravenous, 0.5 mg single): no effect

C=CCC1C(=O)C=C(OC)C2(OC)C(C)C(c3ccc4c(c3)OCO4)OC12 (single isomer, unassigned; (-))
mRNA level (measured: SHP, BSEP; mouse, bile duct ligation, liver; dose not given): increased

Cc1csc(NC(=O)CCN2CCC(O)CC2)n1
inhibition in vivo (paw oedema; mouse; intraperitoneal, 200 µmol/kg): 27.5%

CN1CCC[C@]1(C)/C=C/S(=O)(=O)NC(=O)Nc1c2c(cc3c1CCC3)CCC2
inhibition (IL-1β release; human, whole blood ex vivo; oral, 50 mg, 36 h after last dose, multiple ascending dose, together with: LPS and ATP): ~90%

CC(=O)N/C(N)=N/C(=N\S(=O)(=O)c1ccc(C(F)(F)F)cc1)N1C[C@H](c2ccccc2)C(c2ccc(Cl)cc2)=N1
2-deoxyglucose uptake (hyperinsulinaemic euglycaemic clamp; diet-induced obese β-arrestin-2 knockout mice, soleus muscle; 1 mg/kg, obesity-induced impairment): no effect

CC(C)C1=C(OC(=O)CCc2ccccc2)C(=O)C2=C(C=C[C@H]3C(C)(C)CCC[C@]23C)C1=O
HORAC (hydroxyl radical absorbance capacity, fluorometric): 0.63 Trolox equivalents

O=C(OCc1cccc(O)c1O)c1ccc(O)c(CO)c1
time to blood pressure fall (C57BL/6J mice; dose not given, dosed days 7-14, together with: angiotensin II infusion): ≤ 24 h

COc1ccc2c(c1)c(CC(=O)OCC(=O)OC(C)(C)C)c(C)n2C(=O)c1ccc(Cl)cc1
latency of nociceptive response (hot plate test; BALB/c mice; 100 mg/kg, 0 min): 10.8 ± 1.08 s

COc1cc(CN2CCN(c3ccc(OC(F)(F)F)cc3)CC2)c2cc3[n+](cc2c1O)CCc1cc2c(cc1-3)OCO2
FRAP absorbance (ferric reducing power, FRAP; 10 µg/mL, 30 min; higher is greater reducing power): 0.005 ± 1.32 a.u.

CCC(C)n1c(C(=O)Nc2cnc(C(=O)NC)n(CC(C)C)c2=O)ncc(NC(=O)c2ncc(NC(=O)c3ccccc3)c(=O)n2Cc2ccc(OC)cc2)c1=O (stereo not shown)
transplanted cell number (flow cytometry; MOLT-4, zebrafish embryo xenograft; 500 nM, 48 h; relative to: DMSO): decreased

C=C(c1cc(F)c(C(=O)O)c(F)c1)c1cc2c(cc1C)C(C)(C)CCC2(C)C
log2 fold change (RNA sequencing, measured: Aurkb mRNA; rat, brain; dose not given, 24 h, single dose; relative to: vehicle): 0.9

CCCCCCCCCCCCCCc1sc(NC(=O)CN2CCC(O)CC2)nc1-c1ccccc1
hydroxyl radical scavenging (Fe3+/ascorbic acid system; concentration not given, 30 min, 37 °C, together with: DMSO 33 mM): 78.4%

O=C1CCN(Cc2ccccc2)CC1C(C[N+](=O)[O-])c1ccccc1 (stereo not shown)
tail flick response (tail immersion test; BALB/c mice; ip, 50 mg/kg, 0.5 h): 28.3%

N[C@@H](Cc1c[nH]c2ccccc12)C(=O)N1CCC[C@H]1C(=O)NCC(=O)NCC(=O)O
ΔS‡ at 298.15 K (diketopiperazine formation, transition state theory; 1-propanol; 70, 80, 90 °C, 0.5% acetic acid): 1 ± 1 J/(mol·K)

CCNC(=S)NNS(=O)(=O)c1ccc2c(c1)n(C)c(=O)c(=O)n2C
blood glucose (IPGTT; HFD/STZ diabetic male albino mice; 10 mg/kg, 6 h): 86.7 ± 5.49 mg/dL

C=CC(=O)Nc1ccc(F)c(-c2ncnc3[nH]cc(C(=O)OCC)c23)c1
mRNA level (qPCR, measured: cyclin E1; CD4 T-cell blasts, mouse; 15 nM, together with: IL-2): inhibited

FC(F)(F)c1ccccc1/N=c1\oc2ccccc2cc1-c1ccccc1
oedema reduction (rat, formalin paw oedema; intraperitoneal, 10 mg/kg, 2 h): 30.3 ± 1.6%

Cc1ccc(C(=O)Nc2ccc(CP(=O)(O)O)cc2CP(=O)(O)O)cc1NC(=O)c1cccc(NC(=O)Nc2cccc(C(=O)Nc3cc(C(=O)Nc4ccc(CP(=O)(O)O)cc4CP(=O)(O)O)ccc3C)c2)c1
PT (human plasma; 329 µM): 14.7 ± 1.3 s

Oc1ccc2nc1CNCCNCCNC2
log beta MHL (pH-potentiometric titration; 298 K, I 0.15 M NaCl, together with: Zn2+): 23.8

NCCCC[C@H](N)C(=O)N1CCC[C@H]1C(=O)NCC(=O)NCC(=O)O
ΔS‡ at 298.15 K (diketopiperazine formation, transition state theory; 1-propanol; 70, 80, 90 °C, 0.5% acetic acid): -4 ± 1 J/(mol·K)

CN1CCN(CC(=O)Nc2nc(-c3ccccc3)cs2)CC1
inhibition in vivo (paw oedema; mouse; intraperitoneal, 200 µmol/kg): 64.3%
